Measured values collected from several papers.
Protocols differ between the studies behind these lines. Several values in a cell are separate wells, animals, samples, runs or records. ± gives the spread as reported. ≈ marks a conversion by molar mass, not a printed value.

Compound | tested on | assay | system | setting | scale | measurement | value
CC(C)c1ccc(N(C)c2ccc3c(c2)OCC[C@H]3CNc2cnccc2C(=O)O)cc1 | Hs 294T | cell growth or viability, ATP luminescence |  | 7 days |  | IC50 | 66.8 nM
CN1CCCNC(=O)c2cccc(c2)C(=O)NCCCN(C)CCCNc2cccc3c2C(=O)c2cccc(c2C3=O)NCCC1 | SAS | RNA-Seq, item: INPP4A mRNA |  | 1 µM, 6 h | relative to: untreated cells | log2 fold change | -0.701
C=CC(=O)Nc1cccc(Cn2ncc3cnc(Nc4cnn(CCOC)c4)nc32)c1 | BUB1 human | binding, KINOMEscan |  | 100 nM | lower = stronger binding | percent of control | 86%
Nc1ncc(-c2cc(-c3cnn(CC(F)(F)F)c3)ncc2F)nc1C(=O)NC1CNCC(F)C1 (stereo not drawn) | ERK4 | KINOMEscan |  | 1 µM | relative to: DMSO control | remaining binding | 96%
C=C(NC(=O)c1csc(-c2nc3c(cc2O)-c2nc(cs2)C(=O)NC(C(C)O)C(=O)NC(=C(C)OC)c2nc(cs2)C(=O)NC2c4nc(cs4)C(=O)NC(COC(=O)c4c5c6c(cccc6n4O)COC(=O)C(OC4CC(C)(O)C(N(C)C)C(C)O4)C2OC5)c2nc-3cs2)n1)C(N)=O (stereo not drawn) | Staphylococcus epidermidis |  | methicillin-resistant, 10 isolates | serum 50% |  | MIC50 | 0.0312 µg/mL (≈ 0.0217 µM)
Cc1ncsc1-c1ccc(C(C)NC(=O)C2CC(O)CN2C(=O)C(NC(=O)CCCCCCCCCCN2CCCC(Nc3ncc(Cl)c(Nc4ccccc4S(=O)(=O)C(C)C)n3)C2)C(C)(C)C)cc1 (stereo not drawn) | 22Rv1 | RNA-seq, item: STUM mRNA |  | concentration not given | relative to: DMSO | log2 fold change | -1.86
CNS(=O)(=O)Nc1nccc(Cc2c(C)c3ccc(Oc4ncccc4F)cc3oc2=O)c1F | JeKo-1 | cell viability |  | 7 days |  | IC50 | > 1000 nM
COc1cc(O)ccc1CCC(c1ccc(O)cc1)c1cc2c(c(C)c1O)OC(c1ccc(O)cc1)CC2 (mixture of isomers) |  | item: 12-HEPE | human whole blood | 3 µM, together with: A23187 |  | amount | 110 ± 11 pg/mL blood
CCn1nc(C)c(CN2CCCC(C(=O)c3cccc(OC(C)C)c3)C2)c1C (stereo not drawn) | Trypanosoma cruzi | reporter mRNA translation, inhibitor, item: Renilla luciferase mRNA | cell-free extract | concentration not given, test 2 | relative to: positive over negative control | translation activity | 119% and 105%
CCOc1cncc(-c2ccc(NC(=O)C3(c4ccnc(NS(=O)(=O)C5CC5)n4)CCOCC3)nc2)n1 | Kasumi 1 | cell proliferation, CellTiter-Glo |  | 72 h |  | IC50 | 6 nM
C1CCC(OCCN2CCN(CCOC3CCCCC3)CC2)CC1 | Trypanosoma cruzi | reporter mRNA translation, inhibitor, item: Renilla luciferase mRNA | cell-free extract | concentration not given, test 1 | relative to: positive over negative control | translation activity | 110% and 118%
COC1CN([C@H]2CC[C@H]([C@@]3(C)Oc4c(Cl)cc(C(=O)NCc5c(SC)cc(C)[nH]c5=O)c(C)c4O3)CC2)C1 |  | RNA-seq, item: NLRP6 mouse homolog | mouse, HT-1376 xenograft, whole blood | dose not given | relative to: vehicle | log2 fold change | 0.746

Some of these lines once more:
Compound | tested on | assay | system | setting | scale | measurement | value
CNS(=O)(=O)Nc1nccc(Cc2c(C)c3ccc(Oc4ncccc4F)cc3oc2=O)c1F | JeKo-1 | cell viability |  | 7 days |  | IC50 | > 1000 nM
COc1cc(O)ccc1CCC(c1ccc(O)cc1)c1cc2c(c(C)c1O)OC(c1ccc(O)cc1)CC2 (mixture of isomers) |  | item: 12-HEPE | human whole blood | 3 µM, together with: A23187 |  | amount | 110 ± 11 pg/mL blood
